{"data": "Measured values gathered from unrelated publications", "note": "Each line is one published result; not all experiments were run side by side. ± gives the spread as reported.", "sequence of UniProt O94768 (whole entry, looked up)": "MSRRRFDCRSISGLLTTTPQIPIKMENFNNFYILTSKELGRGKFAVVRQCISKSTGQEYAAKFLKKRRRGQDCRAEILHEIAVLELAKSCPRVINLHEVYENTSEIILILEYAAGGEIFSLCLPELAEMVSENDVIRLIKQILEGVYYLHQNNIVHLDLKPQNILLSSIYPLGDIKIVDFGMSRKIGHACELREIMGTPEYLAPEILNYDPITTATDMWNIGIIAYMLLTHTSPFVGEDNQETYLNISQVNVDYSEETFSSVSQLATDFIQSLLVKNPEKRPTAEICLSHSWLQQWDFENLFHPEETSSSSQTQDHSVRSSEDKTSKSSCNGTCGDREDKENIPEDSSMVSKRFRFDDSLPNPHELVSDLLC"}
{"SMILES": "N=C(N)NCCC[C@H](NC(=O)[C@@H](Cc1ccccc1)NC(=O)[C@H](Cc1c[nH]cn1)NC(=O)CCCc1ccccc1)C(=O)N[C@@H](Cc1c[nH]c2ccccc12)C(=O)NCC(=O)N[C@@H](CCCCNC(=O)CCCCCNC(=O)CN1CCN(CC(=O)O)CCN(CC(=O)O)CCN(CC(=O)O)CC1)C(N)=O [actinium-225 labelled]", "assay": "five-compartment model fit", "test system": "SCID mice, A-375 and A-375/MC1R xenografts", "measurement": "normal tissue uptake rate constant (kni)", "value": "0.013 h⁻¹"}
{"SMILES": "CCCCCCCCCC(=O)N[C@@H](Cc1c[nH]c2ccccc12)C(=O)N[C@H](CC(N)=O)C(=O)N[C@@H](CC(=O)O)C(=O)N[C@@H]1C(=O)NCC(=O)N[C@@H](CCCNC(=O)CCC(=O)N2Cc3ccccc3-c3c(nnn3CCC[C@H](NC(=O)CCCCC[N+]3=C(C=CC4=CC(=CC=C5N(C)c6ccccc6C5(C)C)CCC4)C(C)(C)c4ccccc43)C(=O)NCCCCNC(=O)CCC(=O)N3Cc4ccccc4-c4c(nnn4CCOCCOCCOCCNC(=O)CN4CCN(CC(=O)NCCNC(=O)c5cccc(O)c5O)CCN(CC(=O)NCCNC(=O)c5cccc(O)c5O)CCN(CC(=O)NCCNC(=O)c5cccc(O)c5O)CC4)-c4ccccc43)-c3ccccc32)C(=O)N[C@@H](CC(=O)O)C(=O)N[C@H](C)C(=O)N[C@@H](CC(=O)O)C(=O)NCC(=O)N[C@H](CO)C(=O)N[C@@H]([C@H](C)CC(=O)O)C(=O)N[C@@H](CC(=O)c2ccccc2N)C(=O)O[C@@H]1C", "test system": "mouse plasma", "conditions": "1 µM, up to 240 min, pH 7.4, 37 °C", "measurement": "half-life", "value": "35 min"}
{"SMILES": "COc1cccc2c1C(=O)c1c(O)c3c(c(O)c1C2=O)C[C@@](O)(C(=O)CO)C[C@@H]3O[C@H]1C[C@H](NC(=O)[C@@H]2CCCN2C(=O)CNC(=O)[C@H](CC(C)C)NC(=O)[C@H](C)NC(=O)CP(=O)(O)O)[C@H](O)[C@H](C)O1", "test system": "healthy mice, plasma", "conditions": "intravenous, 94.4 mg/kg", "measurement": "AUC", "value": "115 µM·h"}
{"SMILES": "CC[C@H](C)[C@H](NC(=O)[C@H](Cc1ccccc1)NC(=O)[C@H](CCC(=O)O)NC(=O)[C@H](CCCNC(=N)N)NC(=O)[C@H](C)NC(=O)[C@H](C)NC(=O)[C@H](CCC(N)=O)NC(=O)[C@H](CCC(=O)O)NC(=O)[C@H](CCC(=O)O)NC(=O)[C@H](CC(C)C)NC(=O)[C@H](Cc1ccc(O)cc1)NC(=O)[C@H](CO)NC(=O)[C@H](CO)NC(=O)[C@@H](NC(=O)[C@H](CC(=O)O)NC(=O)[C@H](CO)NC(=O)[C@@H](NC(=O)[C@H](Cc1ccccc1)NC(=O)[C@@H](NC(=O)CNC(=O)[C@H](CCC(=O)O)NC(=O)[C@H](C)NC(=O)CCc1c[nH]cn1)[C@@H](C)O)[C@@H](C)O)C(C)C)C(=O)N[C@@H](C)C(=O)N[C@@H](Cc1c[nH]c2ccccc12)C(=O)N[C@@H](CC(C)C)C(=O)N[C@H](C(=O)N[C@@H](CCCNC(=N)N)C(=O)NCC(=O)N[C@@H](CCCNC(=N)N)C(=O)N[C@@H](CCCCNC(=O)COCCOCCNC(=O)COCCOCCNC(=O)CC[C@H](NC(=O)CCCCCCCCCCCCCCCCC(=O)O)C(=O)O)C(=O)NCC(=O)NCC(=O)N[C@@H](CO)C(=O)N[C@@H](CCCCNc1c(NCCCCCN(O)C(=O)CCC(=O)NCCCCCN(O)C(=O)CCC(=O)NCCCCCN(O)C(C)=O)c(=O)c1=O)C(=O)O)C(C)C [zirconium-89 labelled]", "test system": "rat, kidney", "conditions": "iv, 3 nmol/kg, 72 h, ex vivo", "measurement": "tissue uptake", "value": "8.56 %ID/g"}
{"SMILES": "C[C@@H](O)[C@@H](CO)NC(=O)[C@@H](CCCNC(=N)N)NC(=O)[C@@H]1CCCN1C(=O)[C@@H]1CSSC[C@H](NC(=O)[C@H](Cc2ccccc2)NC(=O)CN2CCN(CC(=O)O)CCN(CC(=O)O)CCN(CC(=O)O)CC2)C(=O)N[C@@H](Cc2ccc(O)cc2)C(=O)N[C@@H](Cc2ccccc2)C(=O)N[C@@H](CCC(N)=O)C(=O)N[C@@H](CC(N)=O)C(=O)N1 [gallium-68 labelled]", "test system": "Wistar rat, pancreas", "conditions": "intravenous, 8 MBq, 30 min, group mean", "measurement": "tissue uptake", "value": "0.32 %ID/g"}
{"SMILES": "CC(C)[C@@H]1NC(=O)[C@H](Cc2ccccc2)NC(=O)[C@@H]2NC(=O)[C@H](Cc3ccccc3)NC(=O)[C@@H]3CCCN3C(=O)CNC(=O)[C@H](Cc3ccccc3)NC(=O)[C@@H]3CNCCCC[C@@H](C(=O)O)NC(=O)[C@@H]4NC(=O)[C@H](CC(N)=O)NC(=O)CNC(=O)[C@H]([C@@H](O)C(=O)O)NC(=O)[C@H](CSC[C@@H](NC(=O)[C@H](CCC(N)=O)NC(=O)[C@H](CCCCNC(=O)c5ccc(NN)nc5)NC(=O)[C@@H](N)CS[C@H]4C)C(=O)N[C@@H](CS[C@H]2C)C(=O)N3)NC1=O [technetium-99m labelled]", "test system": "rat, saline control, kidneys", "conditions": "intravenous, 2 h after tracer, tracer 2 h after reperfusion", "measurement": "tissue uptake", "value": "8.17 ± 1.8 %ID/g"}
{"SMILES": "C[C@@H](O)[C@H](NC(=O)[C@@H]1CSSC[C@H](NC(=O)[C@@H](Cc2ccccc2)NC(=O)CN2CCN(CC(=O)[O-])CCN(CC(=O)[O-])CCN(CC(=O)[O-])CC2)C(=O)N[C@@H](Cc2ccc(O)cc2)C(=O)N[C@H](Cc2c[nH]c3ccccc23)C(=O)N[C@@H](CCCCN)C(=O)N[C@@H]([C@@H](C)O)C(=O)N1)C(=O)O.[177Lu+3]", "tested on": "MEC1 treated with 50 µM zebularine", "assay": "gamma counter", "test system": "serum-free RPMI", "conditions": "30 min, 37 °C", "measurement": "uptake", "value": "1.01%"}
{"SMILES": "C[C@H]1CN(c2n[nH]c3nc(N[C@H]4CC[C@H](NS(=O)(=O)CCC(F)(F)F)CC4)ncc23)CCO1", "tested on": "Serine/threonine-protein kinase 17B (STK17B, Homo sapiens, UniProt O94768)", "assay": "inhibitor, Kinobeads competition profiling", "conditions": "20 µM", "scale": "relative to: vehicle", "measurement": "relative abundance", "value": 1.09}
{"SMILES": "O=C(O)C[C@H](NC(=O)[C@H](CC(=O)O)NC(=O)[C@H](CC(=O)O)NC(=O)[C@H](CC(=O)O)NC(=O)[C@H](CC(=O)O)NC(=O)[C@H](CC(=O)O)NC(=O)[C@H](CC(=O)O)NC(=O)[C@H](CC(=O)O)NC(=O)[C@H](CC(=O)O)NC(=O)[C@H](CC(=O)O)NC(=O)[C@H](CC(=O)O)NC(=O)[C@H](CCCCNC(=O)c1ccc(C(=O)NCCOCCOB2BBBBBB3BBBB3B2)cc1)NC(=O)CN1CCN(CC(=O)O)CCN(CC(=O)O)CCN(CC(=O)O)CC1)C(=O)O [gallium-67 labelled]", "assay": "gamma counting", "test system": "ddY mouse, male, 6 weeks old, liver", "conditions": "intravenous, 37 kBq, 10 min", "measurement": "tissue uptake", "value": "1.69 %ID/g"}
{"note": "Excerpt of the above:"}
{"SMILES": "CC(C)[C@@H]1NC(=O)[C@H](Cc2ccccc2)NC(=O)[C@@H]2NC(=O)[C@H](Cc3ccccc3)NC(=O)[C@@H]3CCCN3C(=O)CNC(=O)[C@H](Cc3ccccc3)NC(=O)[C@@H]3CNCCCC[C@@H](C(=O)O)NC(=O)[C@@H]4NC(=O)[C@H](CC(N)=O)NC(=O)CNC(=O)[C@H]([C@@H](O)C(=O)O)NC(=O)[C@H](CSC[C@@H](NC(=O)[C@H](CCC(N)=O)NC(=O)[C@H](CCCCNC(=O)c5ccc(NN)nc5)NC(=O)[C@@H](N)CS[C@H]4C)C(=O)N[C@@H](CS[C@H]2C)C(=O)N3)NC1=O [technetium-99m labelled]", "test system": "rat, saline control, kidneys", "conditions": "intravenous, 2 h after tracer, tracer 2 h after reperfusion", "measurement": "tissue uptake", "value": "8.17 ± 1.8 %ID/g"}
